Measured values pooled from the literature.
“And” joins repeats or separate records; there may be more than shown. ± marks the error that the study gave.
AKT1: RAC-alpha serine/threonine-protein kinase (AKT1, Homo sapiens, UniProt P31749)
AKT1 S473D: RAC-alpha serine/threonine-protein kinase (AKT1, Homo sapiens, UniProt P31749, S473D)

Compound | target | test | test system | conditions | how to read | endpoint | value
Cc1ccc(-c2c(/C=C(\C#N)C(=O)NC(C)C)n(CCCO)c3ncnc(N)c23)cc1 | AKT1 | cell-free assay, competition with immobilised ligand |  | 1 µM |  | remaining binding | 100%
C=CC(=O)N1CCc2ccc(-n3c(=O)ccc4cnc5ccc(-c6cnn(C)c6)cc5c43)cc21 | AKT1 | KINOMEscan |  | 1 µM | reference: DMSO control | remaining binding | 100%
NC(=O)[C@@H](O)C[C@H]1CCc2sc3ncnc(O[C@H]4CC[C@H](N5CCOCC5)CC4)c3c21 | AKT1 | enzyme activity, inhibitor |  | 10 µM |  | inhibition | -1%
C=CC(=O)Nc1cccc(-c2cnc3[nH]cc(C(=O)NC(C)(C)C)c3n2)c1 | AKT1 | kinase activity |  | 0.1 µM |  | inhibition | -1% and 1%
O=C(O)CCC(=O)c1cccc(NS(=O)(=O)c2c[nH]c3ncccc23)c1 | AKT1 | enzyme activity, inhibitor, radiometric |  | 10 µM |  | activity vs control | 104%
Cc1cccc(-c2ccc3nc(NC(=O)C4CCOCC4)nn3c2)c1 | AKT1 S473D | enzyme activity |  | 10 µM |  | remaining activity | 86%
CNC1C[S+]2CC[S+]3CC[S+](C1)[Ru-4]321([N]=C=S)[n]2c3ccc(OC)cc3c3c4c(c5cc(F)c[n+]1c5c32)C(=O)NC4=O (centres unmarked) | AKT1 | KinomeScan |  | 0.1 µM | reference: untreated | remaining binding | 99%
O=[N+]([O-])c1ccc(Cn2cc(Cn3cc(CO)nn3)nn2)cc1 | RAC-alpha serine/threonine-protein kinase, PH domain (AKT1, Homo sapiens, UniProt P31749) | PIP3 binding to PH domain, SPR |  | 50 µM |  | inhibition | 52 ± 5%
CCn1cc(C(=O)O)c(=O)c2c(N)c(F)c(NC3CCCCC3)cc21 | AKT1 | kinase activity |  | 0.1 µM, added: ATP at Km |  | inhibition | 0.9%
COc1cc(Nc2nccc(-c3cnn4nc(OC)ccc34)n2)cc(C(F)(F)F)c1 | AKT1 | binding, competition with immobilised ligand |  | 1 µM |  | remaining binding | 100%
O=c1c(-c2ccc(Cl)c(CN3CCOCC3)c2)coc2cc(O)ccc12 | AKT1 | enzyme activity, inhibitor |  | 1 µM |  | remaining activity | 122%
COc1ccc(NC(=O)Nc2ccc3c(c2)C(=O)N(C(C)CO)CC(C)C(CN(C)Cc2ccc4c(c2)OCO4)O3)cc1 (centres unmarked) | AKT1 | kinase activity, KinaseProfiler |  | 0.03 µM, species human | reference: control | remaining activity | 87%
C=CC(=O)Nc1cc(-c2nn(C3CCN(CCNC(=O)[C@H](C)CCC45CC6CC(CC(C6)C4)C5)CC3)c3ncnc(N)c23)ccc1Oc1ccccc1 | AKT1 | inhibitor, KiNativ profiling | biochemical | 2 µM |  | inhibition | 10.1%
C=C1CCCCCCCCCC(CO)C1=O (centres unmarked) | AKT1 | cell-free assay, competition with immobilised ligand |  | 10 µM |  | remaining binding | 100%
Cc1nc2c(F)cc(-c3nc(Nc4ccc(CNC(=O)CCCCCCC(=O)NO)cc4)ncc3F)cc2n1C(C)C | AKT1 | enzyme activity, inhibitor |  | 1 µM |  | inhibition | 30%
C[C@H]1CN(C(=O)c2cn(-c3ccnc(N)n3)c3cc(C#CC4(O)CCCCC4)ccc23)CCN1 | AKT1 | enzyme activity, inhibitor, FRET |  | 1 µM |  | inhibition | 11%
Cc1cccc(O[C@H]2CCC[C@@H](C(C)CNCc3ccncc3)C2)c1 (relative stereo) | AKT1 | enzyme activity, inhibitor |  | 1 µM |  | inhibition | 3%
CN1CCN(Cc2ccc(NC(=O)c3cccc(C#Cc4cnc(N)c5ncccc45)c3)cc2C(F)(F)F)CC1 | AKT1 | cell-free assay, competition with immobilised ligand |  | 50 nM |  | remaining binding | 97%
COc1c(OCCCN2CCOCC2)ccc2c1N=C(NC(=O)c1cnc(N)nc1)N1CCN=C21 | AKT1 | kinase activity, inhibitor |  | 1 µM | reference: untreated control | remaining activity | 92%
CS(=O)(=O)Nc1cccc(-c2csc3cnc(Nc4ccc(N5CCN(CCCCCOc6cccc7c6C(=O)N(C6CCC(=O)NC6=O)C7=O)CC5)cc4)nc23)c1 (centres unmarked) | AKT1 | probe labelling, inhibitor, KiNativ chemoproteomics | MOLT-4 | 1 µM |  | inhibition | -0.834%
CN1CC[C@@H](COc2cnc(C#N)cc2-c2ccn3nc(NC(=O)C4CC4)cc3c2)C1 | AKT1 | enzyme activity, inhibitor |  | 1 µM |  | inhibition | 5%
N[C@H]1CC[C@H](Nc2nccc(-c3cccnc3Oc3ccc(NC(=O)NC4CC4)c4ccccc34)n2)CC1 | AKT1 | kinobead competition pulldown | HEK293/HCT116 lysate mixture | 10 µM, 1 h, 4 °C | lower = stronger competition | log2 LFQ intensity | 19.5 and 20.8 and 21.6 and 21.5
CNC(=O)C1CCN(c2cc(C)c(F)cc2NC(=O)c2ccc(-c3cc(O)ccc3C)c(C)c2)CC1 | AKT1 | binding, competition with immobilised ligand |  | 1 µM |  | remaining binding | 89%
C=CC(=O)N1Cc2nc(-c3cc(-c4cc(Cl)cnc4Cl)c(F)cc3F)n(-c3ccncn3)c2C1 | AKT1 | cell-free assay, inhibitor |  | 1 µM |  | inhibition | -7.3%
Cc1cccc(-c2ccc3nc(NC(=O)C4CCCO4)nn3c2)c1 (centres unmarked) | AKT1 S473D | enzyme activity |  | 10 µM |  | remaining activity | 93%
Nc1nc(Nc2ccccc2)sc1C(=O)c1ccccc1 | AKT1 | enzyme activity, inhibitor |  | 10 µM |  | remaining activity | 89%

A few entries again:
Compound | target | test | test system | conditions | how to read | endpoint | value
N[C@H]1CC[C@H](Nc2nccc(-c3cccnc3Oc3ccc(NC(=O)NC4CC4)c4ccccc34)n2)CC1 | AKT1 | kinobead competition pulldown | HEK293/HCT116 lysate mixture | 10 µM, 1 h, 4 °C | lower = stronger competition | log2 LFQ intensity | 19.5 and 20.8 and 21.6 and 21.5
